Measured values pooled from the literature.
Each numbered part is a random draw from the data of one study; scales do not carry over between parts.

Block 1 — method: protein binding microarray; molecule type: double-stranded DNA, one strand shown; medium: in vitro; concentration: not given; relative to: not given; reading: higher = stronger binding; quantity: E-score
Target: Histone acetyltransferase KAT6A, both winged helices, GST fusion (KAT6A, Homo sapiens, UniProt Q92794, residues 1-181)
Setting: 8-mer, flanks averaged, mean of 2 arrays, mostly near background
Residues (chain): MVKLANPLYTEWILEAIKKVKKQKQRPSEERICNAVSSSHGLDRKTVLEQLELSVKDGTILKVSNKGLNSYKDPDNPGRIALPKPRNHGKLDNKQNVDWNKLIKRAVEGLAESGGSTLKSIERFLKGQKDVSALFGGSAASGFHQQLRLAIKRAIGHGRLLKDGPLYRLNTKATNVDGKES
Sequence = CATACAGC; result = 0.124
Sequence = AATTCTGC; result = 0.0455
Sequence = ATCATCAC; result = -0.067
Sequence = CTCGTACC; result = 0.0166
Sequence = GCGTGACC; result = 0.186
Sequence = ACTGTGCG; result = 0.177
Sequence = AAGATCAA; result = -0.0637
Sequence = ATATGGTC; result = -0.201
Sequence = AGTATTAG; result = -0.136
Sequence = CAAACAAG; result = -0.0365
Sequence = CGATTTAC; result = 0.116
Sequence = CATGTTGG; result = -0.0585
Sequence = ACCTACTC; result = -0.165
Sequence = TATGTGGA; result = 0.0163
Sequence = ATGCCGGA; result = 0.194
Sequence = CACTCAAG; result = -0.212
Sequence = CTCTACTA; result = -0.224
Sequence = GCCCACGA; result = -0.195
Sequence = AGCTTACA; result = -0.144
Sequence = CACTTTAG; result = -0.177
Sequence = GTATGCTA; result = -0.0737
Sequence = CTGCTAGA; result = -0.0333
Sequence = AATCCTCT; result = -0.191
Sequence = GATGGCCC; result = -0.103
Sequence = ACCGCCTA; result = 0.156

Block 2 — method: RNA Bind-n-Seq; molecule type: RNA; medium: in vitro; concentration: 200 nM; setting: whole 134-nt RNA, ends assumed; added: 150 mM LiCl; relative to: input library; reading: higher = stronger binding; quantity: log2 enrichment; all molecules: 7-deaza-guanosine replaces G
Target: Ras GTPase-activating protein-binding protein 1, full length (G3BP1, Homo sapiens, UniProt Q13283)
UniProt Q13283, sequence (whole entry, looked up): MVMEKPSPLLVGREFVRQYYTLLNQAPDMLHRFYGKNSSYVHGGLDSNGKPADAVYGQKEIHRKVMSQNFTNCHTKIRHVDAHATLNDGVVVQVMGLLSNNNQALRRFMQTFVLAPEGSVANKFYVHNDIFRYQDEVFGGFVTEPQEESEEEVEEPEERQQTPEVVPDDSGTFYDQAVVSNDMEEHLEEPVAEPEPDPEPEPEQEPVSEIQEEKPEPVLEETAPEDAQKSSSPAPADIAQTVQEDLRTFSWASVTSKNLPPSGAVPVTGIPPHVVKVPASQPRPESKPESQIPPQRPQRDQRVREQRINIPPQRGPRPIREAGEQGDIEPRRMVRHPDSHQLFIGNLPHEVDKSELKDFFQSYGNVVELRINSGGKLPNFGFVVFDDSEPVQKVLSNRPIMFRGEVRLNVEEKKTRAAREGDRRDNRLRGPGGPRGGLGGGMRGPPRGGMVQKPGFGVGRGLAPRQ
Sequence = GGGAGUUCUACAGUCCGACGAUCGUCCUGUGCUACACAUCGUAUGUACCGAAUCGGCCCCCCGGCCCCCCGGGCCCCCCGGGAAAGUAUUAUGUUACGCCGUUCGGAUCUGCAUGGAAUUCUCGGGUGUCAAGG; result = -0.612
Sequence = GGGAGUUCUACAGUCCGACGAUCAGUCCUGUGCUACACAUCGUAUGUACCGAAUCAAAUUUAAACCCCCAAAUUUUUAAAAAAGUAUUAUGUUACGCCGUUCGGAUCUGCACUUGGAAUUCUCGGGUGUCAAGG; result = 0.446
Sequence = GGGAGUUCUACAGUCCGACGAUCUGGACAGGUUGCUGGACCCCGCCAACAGAGCCCACCUGGGCCUGGAGGAGCAGCUGAGAGAGCUGCUGGACAUGCUCGACCUCACCUGCGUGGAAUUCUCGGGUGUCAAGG; result = -1.65
Sequence = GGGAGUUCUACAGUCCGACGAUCAGUCCUGUGCUACACAUCGUAUGUACCGAAUCGGGAAAGGGAAAGGGAAAAAAAGGGAAAGUAUUAUGUUACGCCGUUCGGAUCUGCACUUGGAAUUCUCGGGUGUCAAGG; result = -0.218
Sequence = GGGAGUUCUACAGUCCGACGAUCUGGGAGGUGGAUUUUGUUUAUUUUUGUAGCUCAUUUCCAGGGGUGGGAAUUUUUUUUUAAUAUGUGUCAUGAAUAAAGUUGUUUUUGAAAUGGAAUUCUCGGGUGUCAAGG; result = 0.252
Sequence = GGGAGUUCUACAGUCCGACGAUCACCAUGCAGGUGGGCAUCUUUGGGAAGUGGGGCAAGGGGGGGAUAGGGAGGGGGGUAACACUUUGGGAACAGGUGGUGCCAGGUCGUUUCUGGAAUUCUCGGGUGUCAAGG; result = -0.556
Sequence = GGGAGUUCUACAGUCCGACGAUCUGAUGAUAGUAGCAGAGAAGAUGAACAUACACAUACUAACAGUGUCACGAACUCCAGUAGUAUUGUGGACCUGCCCGUUCACCAACUCUCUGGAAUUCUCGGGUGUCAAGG; result = -0.0239
Sequence = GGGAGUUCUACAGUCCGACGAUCAGUCCUGUGCUACACAUCGUAUGUACCGAAUCGGGAAAGGGAAAGGGUUUUUUUGGGAAAGUAUUAUGUUACGCCGUUCGGAUCUGCACUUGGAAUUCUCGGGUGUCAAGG; result = -1.14

Block 3 — method: RNA Bind-n-Seq; molecule type: RNA; medium: in vitro; concentration: not given; relative to: input RNA pool; reading: higher = stronger binding; quantity: bound/input enrichment
Target: RING finger protein unkempt homolog, zinc fingers 1-6, GST-SBP tag (UNK, Homo sapiens, UniProt Q9C0B0, residues 30-357)
UniProt Q9C0B0, sequence (30-357, looked up): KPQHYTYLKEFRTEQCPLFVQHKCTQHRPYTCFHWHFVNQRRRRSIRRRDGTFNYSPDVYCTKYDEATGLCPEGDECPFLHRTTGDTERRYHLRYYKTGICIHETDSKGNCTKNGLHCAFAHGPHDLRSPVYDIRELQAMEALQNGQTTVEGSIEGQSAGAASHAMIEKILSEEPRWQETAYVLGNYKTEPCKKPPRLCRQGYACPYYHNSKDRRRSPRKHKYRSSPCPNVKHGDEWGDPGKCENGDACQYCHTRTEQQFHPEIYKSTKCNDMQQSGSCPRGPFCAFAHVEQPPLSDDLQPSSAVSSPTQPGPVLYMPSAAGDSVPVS
Setting: RNA with constant flanks, human and mouse sites, ends assumed
Sequence = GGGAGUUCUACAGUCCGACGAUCAUUGAACAGCACUAUUUUGAAGAUCGUGGUAAAGGCAGGCUGUCAUAGAGUUAUGUGUUAGUCUCAGGAGUCUUAACUUUUGAAAUAUGUUUUACUUGAAUGUUACAUUAGAUAUUGGUGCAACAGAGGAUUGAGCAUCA; result = 15 ratio
Sequence = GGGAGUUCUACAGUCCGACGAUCCUUGCUACACUUGGCACCCCCCCGCCCCCACCACAACCCUGCCUCUCCAUCAUGAACCUGCCUUUCCUCCUCCCUCGCUCCUCCCACAACCUCAGCCCACCCAGCCGGUAUCCUCUGAGGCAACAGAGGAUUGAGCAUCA; result = 1.32 ratio
Sequence = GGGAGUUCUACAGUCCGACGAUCUGUAGAGCGAAUGUAUACCUGCUUCCCACAGGGGAGAUAGUUUAUUUUAUCGCCUCAGUGGUAGUCCUGUUUAAUUAUGAGGAGAGGACUCAGCGACACUACCUGGGUCAUACAGACUGUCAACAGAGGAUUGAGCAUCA; result = 0.942 ratio
Sequence = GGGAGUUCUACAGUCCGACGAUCAUCAACACCCAGGAACAGGGACCAGAUGAAGGAGAGGAGAAGGCAGCAGGAGAGGCUGAGGAGGAUGAUGAAGACGAAGAGGAGGAGGAGGAGGAGGAGGACUUGUCUUCUCCUCCAGGGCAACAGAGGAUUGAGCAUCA; result = 0.281 ratio
Sequence = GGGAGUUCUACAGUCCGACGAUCUAUGCAGGAACACUGAAAGCAUAGGGUCUAAAUACCUUUGAUAGAUAAAAUGGUUGAUAUUUAAUAAAAUUUGUUGGUACUUAUUGUAUAUUUGGCUUCUUCUAAUAAAGAUUUCCAUAACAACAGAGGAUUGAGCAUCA; result = 1.14 ratio
Sequence = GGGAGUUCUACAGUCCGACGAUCCGACUCGGGGACGGCCUGGGUGCUGCCCUGGGCCCGGGGAACAGAACACACAUCUGGCUUUUUGUUAGAGGUCUUCAUGGAAAGAGUGGUACAUGGUGGGAUGAGCAUCUUUCUGAAGAACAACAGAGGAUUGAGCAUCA; result = 0.268 ratio

Block 4 — method: universal PBM; molecule type: double-stranded DNA, one strand shown; medium: in vitro; concentration: 600 nM; reading: higher = stronger binding; quantity: E-score
Target: Sal-like protein 4, full length isoform A (SALL4, Homo sapiens, UniProt Q9UJQ4, residues 1-1053)
UniProt Q9UJQ4, sequence (whole entry, looked up): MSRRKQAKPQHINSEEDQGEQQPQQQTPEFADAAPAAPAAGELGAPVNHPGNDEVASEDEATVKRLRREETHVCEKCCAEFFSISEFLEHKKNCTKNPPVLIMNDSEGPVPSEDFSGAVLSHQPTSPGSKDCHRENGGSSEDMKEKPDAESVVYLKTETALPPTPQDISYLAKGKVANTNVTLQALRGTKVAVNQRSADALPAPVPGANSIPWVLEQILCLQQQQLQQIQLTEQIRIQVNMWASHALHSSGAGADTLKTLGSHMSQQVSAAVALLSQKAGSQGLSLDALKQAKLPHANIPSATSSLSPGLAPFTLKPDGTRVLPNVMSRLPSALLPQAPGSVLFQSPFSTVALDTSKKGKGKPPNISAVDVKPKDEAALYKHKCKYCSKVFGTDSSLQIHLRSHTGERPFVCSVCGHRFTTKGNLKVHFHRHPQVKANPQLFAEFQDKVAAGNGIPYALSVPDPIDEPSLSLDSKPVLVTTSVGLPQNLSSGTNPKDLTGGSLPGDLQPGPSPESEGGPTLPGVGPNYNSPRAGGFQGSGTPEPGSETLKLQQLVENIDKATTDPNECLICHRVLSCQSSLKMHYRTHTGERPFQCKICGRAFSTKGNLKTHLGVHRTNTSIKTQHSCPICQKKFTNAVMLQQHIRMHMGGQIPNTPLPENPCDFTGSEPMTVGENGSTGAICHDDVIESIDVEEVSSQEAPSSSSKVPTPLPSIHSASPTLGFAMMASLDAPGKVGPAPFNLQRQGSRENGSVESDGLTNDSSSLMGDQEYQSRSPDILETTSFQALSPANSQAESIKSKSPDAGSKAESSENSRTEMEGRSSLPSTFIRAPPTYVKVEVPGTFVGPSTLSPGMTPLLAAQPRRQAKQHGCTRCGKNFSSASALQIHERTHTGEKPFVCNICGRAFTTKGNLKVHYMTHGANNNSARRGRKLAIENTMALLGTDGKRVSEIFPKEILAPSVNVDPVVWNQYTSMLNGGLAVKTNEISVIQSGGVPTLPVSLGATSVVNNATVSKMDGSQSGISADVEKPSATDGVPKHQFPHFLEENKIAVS
Setting: 8-mer, flanks averaged, mean of replicates
Sequence = CCCCCCGC; result = -0.364
Sequence = GTGATTCA; result = 0.0899
Sequence = CCATCCGC; result = -0.168
Sequence = ATACCCTA; result = 0.161
Sequence = GAGGGCTA; result = -0.188
Sequence = GCCGTTTA; result = -0.0126
Sequence = AAGCCCCA; result = -0.309
Sequence = ACAGGGGT; result = -0.246
Sequence = CCGTGGGC; result = -0.341
Sequence = CTACGCTA; result = -0.0744
Sequence = ACGCTAAC; result = -0.135
Sequence = AAATCGGC; result = -0.0828

Block 5 — method: protein-binding microarray; molecule type: double-stranded DNA, one strand shown; medium: in vitro; concentration: 940 nM top; setting: 60-bp whole probe; added: salmon DNA 0.4 mg/ml; relative to: random background probes; reading: higher = stronger binding; quantity: fitted relative affinity; constant ends, left off below: GCCTAGCAC … GTCTTGATTCGCTTGACGCTGCTG
Target: Interferon regulatory factor 5, full length, phosphomimetic (IRF5, Homo sapiens, UniProt Q13568-2, residues 1-514, S451D/S453D/S456D/S462D)
Sequence = TAAGGACTGCTTATCCTTTAGTGCTAG; result = -0.0484 z-score
Sequence = GACGGACGGGGTCTCGGGACGTGCTAG; result = 0.0629 z-score
Sequence = TTAGTACTGGGACTGGGTTAGTGCTAG; result = -0.286 z-score
Sequence = GACGGTCACGGACTGGGGACGTGCTAG; result = -0.899 z-score
Sequence = TGAACTTCGGCCTCTAGGTTTGTGCTA; result = -0.605 z-score
Sequence = TCATATATTATATATTTAACTGTGCTA; result = 0.56 z-score
Sequence = GACGGACCGGGGTATCGGGACGTGCTA; result = 0.1 z-score
Sequence = CTTGTGCTCCTTTTAATTTTGTGCTAG; result = 0.695 z-score
Sequence = TTAGCTTTCGGGACTGGGTTAGTGCTA; result = 1.97 z-score

Single results of other studies
Substance = PhoQ, residues 284 288 289 292 302 303 SSLVEF; target = PhoP, residues 12 14 15 18 19 IQFRS (Escherichia coli, UniProt P23836); assay = Sort-seq, item: YFP reporter; system = E. coli; setting = PhoQ-PhoP variant library, added: 10 µM Mg2+; scale = relative to: high Mg2+ state, higher = stronger signaling; quantity = fold induction; result = 1.44
